Experimental data gathered from unrelated publications.
Parts stem from different laboratories: compare values within a part only. Positions count from the first letter of the parent shown.

Sample 1
Target: Interferon regulatory factor 5, full length, phosphomimetic (IRF5, Homo sapiens, UniProt Q13568-2, residues 1-514, S451D/S453D/S456D/S462D)
Technique: protein-binding microarray
Form: double-stranded DNA, one strand shown
Medium: in vitro
Concentration: 940 nM top
Setting: 60-bp whole probe
With: salmon DNA 0.4 mg/ml
Relative to: random background probes
Direction: higher = stronger binding
Endpoint: fitted relative affinity
All sequences stand within: GCCTAGCAC … GTCTTGATTCGCTTGACGCTGCTG
GACGGACTGGACAGTGGGGACGTGCTA: 0.00196 z-score
TTAGGTCTCCTTATCCTTCAGTGCTAG: 0.405 z-score
GACGGTTCCGACTTTCGGGACGTGCTA: 1.01 z-score
GTCGGTATCGGGTATCGGGACGTGCTA: 7.09 z-score
TCAGAAATCTCAATGGGACTGTGCTAG: 0.0718 z-score
ACCGTTGTAGTTTTCATTATGTGCTAG: 1.2 z-score
TTACATTTCAGTTCCGATTAGTGCTAG: 1.86 z-score
TCACTTTACACACATCATCTTGTGCTA: 1.37 z-score
GACGGTTTCGACTATCCGGACGTGCTA: 9.56 z-score
GTCGGTTTCCTACTGCTGACGTGCTAG: 1.76 z-score
TTAGGTATTGACACTGGGTTAGTGCTA: 0.129 z-score
TCATTCCTAATTCTCTTACTGTGCTAG: 1.18 z-score
TTAGGTTCGCTTTTCCTTTAGTGCTAG: 0.621 z-score
TTAGGTTGCGGACTGGGTTAGTGCTAG: -0.0175 z-score
GACGGACTGGGGGATCGGGACGTGCTA: 0.299 z-score
ATTGCTTTCTCTTTCATTGCGTGCTAG: 2.45 z-score
TCATATAGGTTGTTTCTAACTGTGCTA: 0.741 z-score
GACGGTATCGATCTCGGGACGTGCTAG: 7.27 z-score
GACGGTTTCGGTATTGGGACGTGCTAG: 12 z-score

Sample 2
Target: Ras GTPase-activating protein-binding protein 1, full length (G3BP1, Homo sapiens, UniProt Q13283)
UniProt Q13283, sequence (whole entry, looked up): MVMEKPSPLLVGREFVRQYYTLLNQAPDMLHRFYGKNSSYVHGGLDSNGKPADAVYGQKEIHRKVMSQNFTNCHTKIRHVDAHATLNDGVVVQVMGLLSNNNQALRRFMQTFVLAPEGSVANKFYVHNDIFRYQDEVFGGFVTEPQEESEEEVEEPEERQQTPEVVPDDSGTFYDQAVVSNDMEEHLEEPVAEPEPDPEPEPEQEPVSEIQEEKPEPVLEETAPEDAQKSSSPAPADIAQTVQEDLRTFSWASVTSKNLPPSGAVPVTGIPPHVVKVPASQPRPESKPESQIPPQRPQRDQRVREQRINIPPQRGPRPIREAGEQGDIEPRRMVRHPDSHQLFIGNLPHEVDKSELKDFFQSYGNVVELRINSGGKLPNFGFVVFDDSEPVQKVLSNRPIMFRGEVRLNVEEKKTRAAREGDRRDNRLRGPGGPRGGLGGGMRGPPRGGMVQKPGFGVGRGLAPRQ
Technique: RNA Bind-n-Seq
Form: RNA
Medium: in vitro
Concentration: 200 nM
Setting: whole 134-nt RNA, ends assumed
With: 150 mM LiCl
Relative to: input library
Direction: higher = stronger binding
Endpoint: log2 enrichment
Each molecule: 7-deaza-guanosine replaces G
All sequences stand within: GGGAGUUCUACAGUCCGACGAUC … UGGAAUUCUCGGGUGUCAAGG
UCCUGUGCUACACAUCGUAUGUACCGAAUCAAAUUUUUAAAUUUUUUUAAACCCCCAAAAAAGUAUUAUGUUACGCCGUUCGGAUCUGCA: 0.716
AGUCCUGUGCUACACAUCGUAUGUACCGAAUCGGGGCCCCGGGGCCCCGGGCCCCGGGAAAGUAUUAUGUUACGCCGUUCGGAUCUGCAC: -1.15
AGUCCUGUGCUACACAUCGUAUGUACCGAAUCGGGAAAAGGGAAAAGGGAAAAGGGGAAAGUAUUAUGUUACGCCGUUCGGAUCUGCACU: -0.218
AGUCCUGUGCUACACAUCGUAUGUACCGAAUCGGGGUUUUUGGGGAAAGGGGAGGGGAAAGUAUUAUGUUACGCCGUUCGGAUCUGCACU: -0.122
CAAGUCCUGUGCUACACAUCGUAUGUACCGAAUCGGGGAAAGGAAAGGAAAGGGGAAAGUAUUAUGUUACGCCGUUCGGAUCUGCACUUC: 0.112
AGAGAAUAAGAAUUCAGCUGACAGGAGGCCUCUAUCCUGUCCCUCCACCCCACCCUCCACCUCAAUCCCCUCCCAUCUUCCCCAGACCUA: 0.0744
UCCUGUGCUACACAUCGUAUGUACCGAAUCGGGGAAAAAAGGGAAAAAAGGAAAAAAGGAAAGUAUUAUGUUACGCCGUUCGGAUCUGCA: 0.0989
GUCCUGUGCUACACAUCGUAUGUACCGAAUCAAACCCCCCCAAACCCAAAUUUUUAAAAAAGUAUUAUGUUACGCCGUUCGGAUCUGCAC: 0.741

Sample 3
Target: CCND2, cyclin fold, Cln2 fusion (human)
Technique: yeast growth competition, sequencing
Medium: yeast
Setting: weak parent motif
Relative to: not given
Direction: higher = stronger binding
Endpoint: normalised enrichment score
Starting sequence: BRCA2 docking peptide (human); PSIKRNLLNEFDR; partner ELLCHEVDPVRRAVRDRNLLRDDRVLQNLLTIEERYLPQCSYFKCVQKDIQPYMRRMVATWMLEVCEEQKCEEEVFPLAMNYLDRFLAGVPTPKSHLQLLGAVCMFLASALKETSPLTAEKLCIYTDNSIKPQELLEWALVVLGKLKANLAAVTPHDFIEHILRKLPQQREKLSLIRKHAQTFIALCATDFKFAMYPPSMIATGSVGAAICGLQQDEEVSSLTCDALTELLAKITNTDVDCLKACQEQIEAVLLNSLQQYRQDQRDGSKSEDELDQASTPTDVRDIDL
L8P: -0.09
L8M: 0.655
F11S: -0.488
I3S: 0.0966
S2C: 0.12
S2W: 0.152
L7Q: 0.295
K4M: -0.0574
D12A: 0.645
S2E: -0.0845
N6W: 0.171
I3E: 0.24
L7R: 0.608
N6Q: -0.0857
N6L: -0.0547
E10Q: 0.0888
L8W: 0.00229
N9A: 0.203
N6D: 0.068
N9Q: 0.107
L8C: 0.163
R5Y: 0.116
I3T: -0.264
L8Q: -0.0761
R5G: -0.154

Sample 4
Target: RNA binding protein fox-1 homolog 2, RRM domain, GST-SBP tag (RBFOX2, Homo sapiens, UniProt O43251-10, residues 100-194)
Technique: RNA Bind-n-Seq
Form: RNA
Medium: in vitro
Concentration: 365 nM
Setting: natural RNA segment, single round, ends assumed
Relative to: no-protein control
Direction: higher = stronger binding
Endpoint: RBNS enrichment (R)
All sequences stand within: GGGAGUUCUACAGUCCGACGAUC … UGGAAUUCUCGGGUGCCAA
Target sequence (chain): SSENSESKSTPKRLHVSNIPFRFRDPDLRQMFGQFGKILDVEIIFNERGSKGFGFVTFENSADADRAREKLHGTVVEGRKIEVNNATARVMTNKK
ACCCCAUCCCUUCUCUCGCGCGCCUAUUGAUUUGUUUCUGAGGAGAGUACACCGUUCACUAUUGUAGAGUAACCCCUGUGACUCAAUAUUACCAUAGUGCGAUGUCGUUU: 0.427
AUAGGACAUAGGGUAAAGAGGCCAAGCUGCCUGUAGUUAGUAGAGAAGAAUGGAUGUGGUUCUUCUUGUGUAUUUAUUUGUAUCAUAAACACUUGGAACAACAAAGACCA: 2.49
CACCUGGAACUGGAUUGGGAAGAGAACAGGACUUGGUGGCCAGGACCGCUCAGAGAGCCAUGGUUGCUCAGGGAUGCUGCUCCGGGAUGCUUGACUAACAGUCGAGGCAG: 1
UGAUUUUAUGAAACAGAAUGUCACCAUAUAAUUCCAAAAAGGGCUUUGUGCUUCUCAUGUAACAUUGGGAUUGUGUAGAUUUGAACCUUAUAACUUGAAUUUUAAAGAUA: 0.334
AUUUUGAAUGAGAUCUACCGACUCACUUGUGAGAAUAUUUUUCACAGAUUAUCUUUGGGCCUUUUCAUUAGAAAGCUGUUUGUUUGUCCCCCUGUUGGUACAUUUGGUUA: 1.12
AGAGAGUGAAUUUCAGUAUACAGACAGCCUGCUCUACCCACCCCUUCCUUACCACGGCCCACGUAAAUGUGACCCUGGACAUCUGUCACACGAAAGCUAAGCUGGUGGCC: 0.788
UGGGGUCUCCCCCAACAUUGUUGCUCUUUUAAACAAAUUGAAUUCUUUUUUCAAGGCUUAAAUUUUUUUUUUUCAUGACCUUCUGGAAGAAGCAAUAGUAGCAAUCUUAA: 0.435
GGAGAGGGGAGGUGGCUCUCCAGUGUAAAACUUGAGGCAUUCACUAGAGGUGAAAACUUGUCAGAAUAUAUAAAAGCUUAGAUUGUAGCUGUUCUAAAAACGUAAGUACU: 4.19

Excerpt of the above (sample 1):
GACGGTATCGATCTCGGGACGTGCTAG: 7.27 z-score
TTACATTTCAGTTCCGATTAGTGCTAG: 1.86 z-score
GACGGACTGGACAGTGGGGACGTGCTA: 0.00196 z-score
GACGGTTCCGACTTTCGGGACGTGCTA: 1.01 z-score
TTAGGTTGCGGACTGGGTTAGTGCTAG: -0.0175 z-score
